Experimental data gathered from unrelated publications.
Each numbered part is a random draw from the data of one study; scales do not carry over between parts. Changes are numbered by the printed parent chain.

Study 1 — method: universal PBM; molecule type: double-stranded DNA, one strand shown; medium: in vitro; tested at: not given; direction: higher = stronger binding
Target: Sal-like protein 4, full length isoform B (SALL4, Homo sapiens, UniProt Q9UJQ4-2, residues 1-616)
Setting: 8-mer, flanks averaged, mean of replicates
Construct (chain): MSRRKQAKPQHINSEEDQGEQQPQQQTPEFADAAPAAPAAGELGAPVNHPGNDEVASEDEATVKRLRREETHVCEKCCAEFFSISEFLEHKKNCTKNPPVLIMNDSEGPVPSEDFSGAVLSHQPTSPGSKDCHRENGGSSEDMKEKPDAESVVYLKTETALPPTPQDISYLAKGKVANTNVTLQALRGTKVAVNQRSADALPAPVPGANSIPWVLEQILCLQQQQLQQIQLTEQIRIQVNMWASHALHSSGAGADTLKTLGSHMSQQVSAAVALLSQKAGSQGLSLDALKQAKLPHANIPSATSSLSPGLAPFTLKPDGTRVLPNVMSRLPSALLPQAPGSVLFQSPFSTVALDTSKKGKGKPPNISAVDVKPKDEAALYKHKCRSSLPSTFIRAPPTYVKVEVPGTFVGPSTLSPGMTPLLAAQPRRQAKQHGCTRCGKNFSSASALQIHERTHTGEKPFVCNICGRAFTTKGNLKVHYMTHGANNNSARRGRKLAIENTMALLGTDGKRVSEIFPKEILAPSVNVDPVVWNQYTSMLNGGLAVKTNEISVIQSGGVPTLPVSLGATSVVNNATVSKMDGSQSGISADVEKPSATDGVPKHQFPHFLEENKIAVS
Sequence	E-score
AAATGCCG	-0.0446
AGTCATCG	0.063
CCGCTACA	-0.131
ATTGGCGA	0.131
AGTTTTAC	0.0891
AGCGGCTA	-0.201
CTCGACGA	-0.191
ACGCTTAC	-0.0776
ATCCGGTC	-0.291
AACCTTTC	0.00102
CGATGGAC	-0.136
AATGTGTG	0.119
TACCAGGA	-0.0123
ACAGGATA	0.225
GCAATCGC	-0.161
AGGTGAAA	0.0748

Study 2 — target: CCND2, cyclin fold, Cln2 fusion (human); method: yeast growth competition, sequencing; medium: yeast; setting: weak parent motif; relative to: not given; direction: higher = stronger binding
Starting sequence: RRM2 docking peptide (human); SKTARRIFQEPTE; partner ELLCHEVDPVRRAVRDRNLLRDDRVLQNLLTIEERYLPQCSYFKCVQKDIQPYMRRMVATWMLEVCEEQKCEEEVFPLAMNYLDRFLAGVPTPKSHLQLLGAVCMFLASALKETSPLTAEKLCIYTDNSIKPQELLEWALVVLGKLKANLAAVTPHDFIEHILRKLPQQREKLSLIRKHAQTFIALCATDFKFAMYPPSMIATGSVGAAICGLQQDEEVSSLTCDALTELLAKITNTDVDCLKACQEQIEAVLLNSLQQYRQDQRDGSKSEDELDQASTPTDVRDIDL
Variant	normalised enrichment score
SKTARAIFQEPTE [R6A]	-0.0651
AKTARRIFQEPTE [S1A]	0.168
SKTAARIFQEPTE [R5A]	0.286
SKTARRIFQEATE [P11A]	-0.301
SKTARRIFAEPTE [Q9A]	0.353
SKTARRAFQEPTE [I7A]	0.249

Study 3 — method: RNA Bind-n-Seq; molecule type: RNA; medium: in vitro; tested at: 365 nM; relative to: no-protein control; direction: higher = stronger binding
Target: RNA binding protein fox-1 homolog 2, RRM domain, GST-SBP tag (RBFOX2, Homo sapiens, UniProt O43251-10, residues 100-194)
Setting: natural RNA segment, single round, ends assumed
Shared flanks, not repeated: GGGAGUUCUACAGUCCGACGAUC … UGGAAUUCUCGGGUGCCAA
Target sequence (chain): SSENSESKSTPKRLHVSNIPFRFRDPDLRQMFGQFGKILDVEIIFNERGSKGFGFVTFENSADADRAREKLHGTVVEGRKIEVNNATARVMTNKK
Sequence	RBNS enrichment (R)
UGUCCGUCCUCUGGGCGGCACAAGUCCCGCAGGCUCUGUGUCUGUUAGGUGAUGGAGCCCAUUCAAGGAGCAUUUGGUGUUGGGUCAGGGUUGCCAAUAGAACACUGUGU	0.442
GUAAUCACUGGAUUUCAAAACCAUGUUUUAGCCCUUCAUUAAUGAAGCCUGUUGUACAGAUUUAGAGUCUUACAAUAUGAGGGAAGUUGGUUCUGGGAAGGUAAGAUGUA	0.836
GGGAAAGCUAGAAACACUAGGUUCUUCCUGUACAUACGUGUAUAUAUGUGAACAGUGAGAUGGCCGUUUCUGACUUGUAGAGAAAUUUUAAUAAACCUGGUUUCGUAAAU	0.312
AAAGCUGGGGAGGAGGAUCUACUGCUGUACAGCUAAUAAAUCAUAACGGAUUAACAAGUGCUCCAAAGACUCCAUCUUGCGUGAUUCCUGCCUGCUUGAGGGAGGCUGGG	4.45
CAUAUUGCAAUUAUGAUUUUAGAAGGAACUAAGCAUUUUACUCACACCCACAGCAGCAAGAAUGACCUCCUGCAGCAGAUAUUCCACCUGUAAUAGCACUUUGGAACUGU	3.55
GUGGGUGUUUUGUAGAAGCAUUGCCUUUCAUUGUUCUUUCUAUAUCUGUCCACAAUGCCUACUGUCUCUGUGGUGAAAUAUUAAAAUAUGUAAGCUCACAUGGAAGUUUA	0.63
CCCCCACACGUGCAGCCCGGGCUGCCUCCAGGGUCUGGCUGAGUGGGAUCAGGUGGCCCUCCAACUCAGCACAGGAAAUAAGUAGAAACAUUUCAGCAGGCCACCUCCCC	0.382
UGCUUUGCCCAGCCUUGCUUUGGACCAGCUCUGCUACGUCUCCAGGGAAACCAAGCUUGGGCCUUGCAGUGGAAAUGGAUCCGAGGGCCCAGGGGACCCUGGUGGAUUUA	0.926

Study 4 — method: RNA Bind-n-Seq; molecule type: RNA; medium: in vitro; tested at: not given; setting: RNA with constant flanks, ends assumed; relative to: input RNA pool; direction: higher = stronger binding
Target: RING finger protein unkempt homolog, zinc fingers 1-6, GST-SBP tag (UNK, Homo sapiens, UniProt Q9C0B0, residues 30-357)
UniProt Q9C0B0, sequence (30-357, looked up): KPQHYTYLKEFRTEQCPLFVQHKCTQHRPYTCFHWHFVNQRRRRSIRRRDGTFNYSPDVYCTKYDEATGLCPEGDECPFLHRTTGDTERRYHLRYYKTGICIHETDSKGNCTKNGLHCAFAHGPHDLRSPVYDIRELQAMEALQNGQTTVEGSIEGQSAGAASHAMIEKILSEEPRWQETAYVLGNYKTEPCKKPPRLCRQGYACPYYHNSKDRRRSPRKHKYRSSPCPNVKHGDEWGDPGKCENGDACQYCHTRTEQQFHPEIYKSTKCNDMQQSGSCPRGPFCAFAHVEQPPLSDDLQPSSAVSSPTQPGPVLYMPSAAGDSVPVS
Shared flanks, not repeated: GGGAGUUCUACAGUCCGACGAUC … CAACAGAGGAUUGAGCAUCA
Sequence	bound/input enrichment [ratio]
UUCCACCUGUAUUAGUUAUCUAUUGCUGUGUAAAAAAUUACCCUAAAUUUAGUAUGUUAAAACCGUAAACAUUAUCUGUCAGUUUCUGUGGGUUAAGAAUUUGGGAGUAGUUUAACAUGA	2.59
AUUAUUCAGGUUGACAAAGCUUAUGACUACCUCAUUCAAAAUACAUCAUUUGCUAACAGAUCCGGUUUUACAGUUACUGUUGGAAAUAACCGUGGUAUCUACCUCCGAGAUCCUGUCCAG	0.135
AGGUUAACUCUGAGAGCUAUCAAACUAUGGGCCAAACGCCACAACAUCUAUUCCAAUAUAUCCGGUUUCCUCGGUGGUGUUUCCUGGGCUAUGCUAGUAGCAAGAACUUGCCAGCUUUAU	0.25
UUUUUUCAGUAAGACUUUCAGGCACUUCUUCCCUUUUGAUUUCUUUUUUUUCCUCUGUUUUUCCGCAUGCAAGUAUGUUGGUACGUUAUGUCCUGGUUUAAAAAGGAUUAAAAUUUUAAA	0.425
CCCACCCACCUACCAGCACUUAAGGCCUAGGACACAAGGUCUGUGUGGCCUCCCAGGCUGCCGGUACCCUCAUCUGCAGAAAAUCAGGGACUAGGAGCAGAGCCCCUCACUGAGCAUGUC	0.172
CAAGGCUGACAGUAACACUGAUGAAUGCUGAUAAUCAGGAAACAUGAAAGAAGCCAUUUGACCGAUUAUUCUAAAGGAUAUCAUCAAGAAGACUAUUAAAAACACCUAUGCCUAUACUUU	0.105
UUGUCUCCUGCAUUCCAUCAAGCACUACUCUCUUUUUGUCGAAUGUCAGCAGAUAGUCGUUCCGGAUACGAGGUGUCUCGUAUUGCAGACAGUGAAAAAAGCGUUAUGUUAAUGCUGGGA	0.101
ACUCCUGUGUCAUAUGACCAGGGGGCAAAUAUGGCCAAGCAGAUCGGAGCAGCCACUUACACCGAAUGCUCAGCUUUACAGUCAGAAAACAGCGUCAGAGACAUUUUUCACGUCGCCACC	0.13

Study 5 — target: MAFK, bZIP domain (human); method: DHFR protein complementation; medium: yeast; relative to: wild-type JUN-FOS pair; direction: higher = stronger binding
Setting: single substitutions, most at no-binding floor
Starting sequence: JUN, bZIP domain (human); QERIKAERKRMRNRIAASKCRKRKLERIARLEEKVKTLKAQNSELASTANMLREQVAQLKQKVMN; partner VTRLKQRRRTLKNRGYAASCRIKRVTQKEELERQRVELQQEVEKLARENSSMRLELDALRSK
Variant	binding fitness
A29W	-1.39 natural log
A29F	-1.69 natural log
K34D	-1.47 natural log
L38Y	-1.46 natural log
V56S	-1.54 natural log
S47D	-1.46 natural log
A29Q	-1.44 natural log
L38Q	-1.48 natural log
A40Q	-1.49 natural log
R30Y	-1.48 natural log
K34A	-1.45 natural log
A57R	-1.49 natural log
K36E	-1.49 natural log
M51A	-1.51 natural log
S47Y	-1.55 natural log
L38T	-1.49 natural log

Study 6 — method: protein-binding microarray; molecule type: double-stranded DNA, one strand shown; medium: in vitro; tested at: not given; direction: higher = stronger binding
Target: Transcription factor Sp1 (SP1, Homo sapiens, UniProt P08047, residues 1-785, full length assumed)
UniProt P08047, sequence (whole entry, looked up): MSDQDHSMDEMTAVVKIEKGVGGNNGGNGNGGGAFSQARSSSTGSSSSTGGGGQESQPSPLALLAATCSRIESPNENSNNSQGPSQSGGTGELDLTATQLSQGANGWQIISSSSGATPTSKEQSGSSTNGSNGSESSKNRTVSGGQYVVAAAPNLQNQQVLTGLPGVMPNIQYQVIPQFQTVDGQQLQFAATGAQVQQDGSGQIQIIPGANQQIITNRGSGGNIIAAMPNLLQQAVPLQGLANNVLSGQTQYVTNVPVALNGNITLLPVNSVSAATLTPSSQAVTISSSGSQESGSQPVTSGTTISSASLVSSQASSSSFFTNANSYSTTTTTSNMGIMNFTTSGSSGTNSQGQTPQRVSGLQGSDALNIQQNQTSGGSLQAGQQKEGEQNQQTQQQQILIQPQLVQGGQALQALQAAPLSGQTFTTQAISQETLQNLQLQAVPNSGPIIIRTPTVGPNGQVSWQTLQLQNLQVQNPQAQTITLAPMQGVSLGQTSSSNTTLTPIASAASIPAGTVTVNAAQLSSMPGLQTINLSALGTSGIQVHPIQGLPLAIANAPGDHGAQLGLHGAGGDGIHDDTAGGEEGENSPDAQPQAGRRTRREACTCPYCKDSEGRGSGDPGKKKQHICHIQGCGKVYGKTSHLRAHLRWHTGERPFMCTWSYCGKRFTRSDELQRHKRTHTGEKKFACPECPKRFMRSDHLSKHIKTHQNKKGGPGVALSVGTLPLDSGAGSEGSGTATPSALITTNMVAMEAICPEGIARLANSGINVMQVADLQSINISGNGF
Setting: k-mer, scored over probes, only values ≥0.25
Sequence	E-score
CGTATTAC	0.269
ATAAATTA	0.317
ACCACGCC	0.257
ATATTATG	0.26
AGGGGCAA	0.313
CTACGCCC	0.284
ACCCACCC	0.47
CCACCCCC	0.427
ATGGGCGG	0.462
GACCCGCC	0.374
CGCCCCTA	0.455
ATATCCCC	0.304
ATCACCCC	0.314
CCCACTCC	0.28
GCCCTCCC	0.418
AATACAAA	0.25
ACTGTTAC	0.256
GGGGTGTA	0.303
CCCTCCTC	0.298
GACGCCCC	0.361
GGAGGGTA	0.332
AGGTGGGG	0.373
ACCACCCC	0.412
CCCGCACC	0.259
CACGCCCC	0.492

Excerpt of the above (study 6):
Sequence	E-score
ATGGGCGG	0.462
GACCCGCC	0.374
CGCCCCTA	0.455
ATATCCCC	0.304
ATCACCCC	0.314
CCCACTCC	0.28
GCCCTCCC	0.418
AATACAAA	0.25
ACTGTTAC	0.256
